Results from different studies.
Numbers after ± are the reported error.
Cell line: BV-2

Under cytokine release, `COc1cc(O)c(-c2c(O)cc(OC)c3c2ccc2cc(O)ccc23)c2ccc3ccccc3c12` is recorded as “decreased” (ELISA, refers to: MCP-1; concentration not given, pretreatment, added: LPS).
For `O=C1CCc2ccc(NS(=O)(=O)c3cccc(Oc4ccccc4)c3)cc2N1`, the IC50 was 4.1 nM (PGE2 release, inhibitor; LPS-stimulated).
The inhibition of `CC[C@@]12CCc3[nH]c4ccccc4c3CCN(C[C@H]3O[C@H]31)C2` is reported as 65.3 ± 2.1% (NO production; 12 µM, 1 h, 24 h stimulation, added: LPS 800 ng/mL; baseline: LPS control).
Under mRNA level, `CCCCCCCCCCCCCCCC(=O)OCC(CSC[C@H](N)C(=O)N[C@@H](CO)C(=O)N[C@@H](CCCCN)C(=O)N[C@@H](CCCCN)C(=O)N[C@@H](CCCCN)C(=O)N[C@@H](CCCCN)C(=O)NCCCCCC(=O)N[C@@H](CCCCN)C(=O)N[C@@H](CC(C)C)C(=O)N[C@H](C(=O)N[C@@H](Cc1ccccc1)C(=O)N[C@@H](Cc1ccccc1)C(=O)N[C@@H](Cc1ccc2ccccc2c1)C(=O)O)C(C)C)OC(=O)CCCCCCCCCCCCCCC` (stereo partly drawn) is recorded as “increased” (RT-qPCR, refers to: Msr1; 1.0 µM, 12 h).
The inhibition of `CC[C@@]12CCc3c(c4ccccc4n3C)CCN(C[C@H](O)[C@H]1O)C2` is reported as 44.4 ± 4.7% (NO production; 3 µM, 1 h, 24 h stimulation, added: LPS 800 ng/mL; baseline: LPS control).
`COc1cc(Cn2ccc3cc(C(=O)NCC45CC6CC(CC(C6)C4)C5)ccc32)ccc1C(=O)NO` — result for IBA1 level: “decreased” (microglial activation; 1000 nM, 3 h, added: LPS 1 µg/mL).
With `COc1cc(/C=C/C(=O)O)ccc1O` the inhibition was 75.6% (NO release, inhibitor, Griess; 10 µM, LPS-stimulated).
`CC[C@@]12CC(O)c3[nH]c4ccccc4c3CCN(C[C@H]3O[C@H]31)C2` (stereo partly drawn) has an inhibition of 41.1 ± 0.8% (NO production; 12 µM, 1 h, 24 h stimulation, added: LPS 800 ng/mL; baseline: LPS control).
`COc1cc(O)cc2c1-c1ccc(O)c(OC)c1CC2` — result for cytokine release: “decreased” (ELISA, refers to: IL-6; concentration not given, pretreatment, added: LPS).

Repeated from above:
`COc1cc(Cn2ccc3cc(C(=O)NCC45CC6CC(CC(C6)C4)C5)ccc32)ccc1C(=O)NO` — result for IBA1 level: “decreased” (microglial activation; 1000 nM, 3 h, added: LPS 1 µg/mL).
